{"data": "Measured values from different studies", "note": "Every numbered part comes from another study and shows a few of its results, in no order. Changes are numbered by the printed parent chain."}
{"data": "Sample 1", "target": "Fragile X messenger ribonucleoprotein 1, C-terminal low-complexity region (Fmr1, Mus musculus, UniProt P35922)", "technique": "RNA Bind-n-Seq", "molecule type": "RNA", "matrix": "in vitro", "concentration": "200 nM", "setting": "whole 134-nt RNA, ends assumed", "with": "150 mM LiCl", "baseline": "input library", "direction": "higher = stronger binding", "library": "7-deaza-guanosine replaces G", "all sequences stand within": "GGGAGUUCUACAGUCCGACGAUC … UGGAAUUCUCGGGUGUCAAGG"}
{"Oligonucleotide": "AGUCCUGUGCUACACAUCGUAUGUACCGAAUCGGUUUUUUUGGAAAGGAAAAAAAGGAAAGUAUUAUGUUACGCCGUUCGGAUCUGCACU", "log2 enrichment": -2.76}
{"Oligonucleotide": "UGGGAGGUGGAUUUUGUUUAUUUUUUUAGCUCUUUUCCAGGGGUGGGAAUUUUUUUUUAAUAUGUGUCAUGAAUAAAGUUGUUUUUGAAA", "log2 enrichment": 0.853}
{"Oligonucleotide": "GUCCUGUGCUACACAUCGUAUGUACCGAAUCGGGGAGGGGUUUUUUUGGGGUUUGGGGAAAGUAUUAUGUUACGCCGUUCGGAUCUGCAC", "log2 enrichment": -0.0512}
{"Oligonucleotide": "ACCAUGCAAGUGGGCAUCUUUGGGAAGUGGGGCAAGGGGGGGAUAGGGAGGGGGGUAACACUUUGGGAACAGGUGGUCCCAGGUCGUUUC", "log2 enrichment": 1.18}
{"Oligonucleotide": "CCUGUGCUACACAUCGUAUGUACCGAAUCGGGGAAAAAAAGGGGUUUUUUUGGGGAGGGGAAAGUAUUAUGUUACGCCGUUCGGAUCUGC", "log2 enrichment": -1.55}
{"Oligonucleotide": "AGUCCUGUGCUACACAUCGUAUGUACCGAAUCGGGGUUUGGGGAAAGGGGAAAGGGGAAAGUAUUAUGUUACGCCGUUCGGAUCUGCACU", "log2 enrichment": 0.108}
{"Oligonucleotide": "CUGUGCUACACAUCGUAUGUACCGAAUCGGGGCCCCCCGGGCCCCCCGGGGCCCCCCGGGGAAAGUAUUAUGUUACGCCGUUCGGAUCUG", "log2 enrichment": -2.28}
{"Oligonucleotide": "AAGUCCUGUGCUACACAUCGUAUGUACCGAAUCGGGAAAAAAAGGGAAAGGGUGGGAAAGUAUUAUGUUACGCCGUUCGGAUCUGCACUU", "log2 enrichment": -1.26}
{"Oligonucleotide": "AAGUCCUGUGCUACACAUCGUAUGUACCGAAUCGGGGCCCCGGGGCCCCGGCCCCGGAAAGUAUUAUGUUACGCCGUUCGGAUCUGCACU", "log2 enrichment": -2.35}
{"Oligonucleotide": "UGGAGAGGGAAGUCCCAAUGGUGCUAGAAUGGUGCUGCAGUGGCAGAAGACGGCUCACAAGUGAGGUCUGGAAGAACAACAGGGAAGACA", "log2 enrichment": 0.491}
{"Oligonucleotide": "CUCAAGUCCUGUGCUACACAUCGUAUGUACCGAAUCGGAAAAAGGAGGAAAGGAAAGUAUUAUGUUACGCCGUUCGGAUCUGCACUUCCA", "log2 enrichment": -1.08}
{"data": "Sample 2", "target": "CCNA2, cyclin fold, Cln2 fusion (human)", "technique": "yeast growth competition, sequencing", "matrix": "yeast", "setting": "strong parent motif", "baseline": "not given", "direction": "higher = stronger binding", "starting sequence": "RBL2 docking peptide (human); STTRRRLFVENDS; partner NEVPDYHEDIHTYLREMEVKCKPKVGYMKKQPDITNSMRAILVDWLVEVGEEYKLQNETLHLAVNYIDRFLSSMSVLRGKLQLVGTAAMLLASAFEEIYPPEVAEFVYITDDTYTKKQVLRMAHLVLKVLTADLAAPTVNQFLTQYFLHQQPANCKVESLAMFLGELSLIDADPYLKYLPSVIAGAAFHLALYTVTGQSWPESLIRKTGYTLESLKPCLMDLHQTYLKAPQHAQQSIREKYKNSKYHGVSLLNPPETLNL"}
{"Substitution": "STTRRRLFVEYDS [N11Y]", "normalised enrichment score": 6.59}
{"Substitution": "STTRWRLFVENDS [R5W]", "normalised enrichment score": 0.0859}
{"Substitution": "STTRRRLFKENDS [V9K]", "normalised enrichment score": 6.31}
{"Substitution": "SITRRRLFVENDS [T2I]", "normalised enrichment score": 4.59}
{"Substitution": "STTRRRLFVRNDS [E10R]", "normalised enrichment score": 3.34}
{"Substitution": "STTRFRLFVENDS [R5F]", "normalised enrichment score": -0.676}
{"Substitution": "STTRRRLFVEDDS [N11D]", "normalised enrichment score": 6.52}
{"Substitution": "STTRRRCFVENDS [L7C]", "normalised enrichment score": 0.486}
{"Substitution": "STFRRRLFVENDS [T3F]", "normalised enrichment score": 5.19}
{"Substitution": "STTRRRLFVENPS [D12P]", "normalised enrichment score": 5.74}
{"Substitution": "STTRRRMFVENDS [L7M]", "normalised enrichment score": 1.34}
{"Substitution": "STARRRLFVENDS [T3A]", "normalised enrichment score": 6.11}
{"data": "Sample 3", "target": "RNA binding protein fox-1 homolog 2, RRM domain, GST-SBP tag (RBFOX2, Homo sapiens, UniProt O43251-10, residues 100-194)", "technique": "RNA Bind-n-Seq", "molecule type": "RNA", "matrix": "in vitro", "concentration": "365 nM", "setting": "natural RNA segment, single round, ends assumed", "baseline": "no-protein control", "direction": "higher = stronger binding", "all sequences stand within": "GGGAGUUCUACAGUCCGACGAUC … UGGAAUUCUCGGGUGCCAA", "Residues (chain)": "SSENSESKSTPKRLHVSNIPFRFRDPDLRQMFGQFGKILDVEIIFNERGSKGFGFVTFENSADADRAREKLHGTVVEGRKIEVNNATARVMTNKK"}
{"Oligonucleotide": "UAUAAAAUGAAUAAAAUGUUUAAGAAAAGAGAAAGAGAAAAGGAAUUAAUUCAGUGAAGGAUGAUUUUGCUCCUAGUUUUGGAGUUUGAAUUUCUGCCAGGAUUGAAUUA", "RBNS enrichment (R)": 1.19}
{"Oligonucleotide": "CUGCAACUGCUCAGCUCUGGUCCAGGCCCUGUGGCAGGACACACAUGGUGAGCCUAGCCCUGGGACAUCAGGAGACUGGGCUCUGGCUCUGUUCGGCCUUUGGGUGUGUG", "RBNS enrichment (R)": 0.405}
{"Oligonucleotide": "AUCACAUACCAGGUCAGGGAGGAUCUGUUCUUCCUCUACGUUUAUCCUGGCAUGUGCUAGGGUAAACGAAGGCAUAAUAAGCCAUGGCUGACCUCUGGAGCACCAGGUGC", "RBNS enrichment (R)": 0.22}
{"Oligonucleotide": "GAAGUUCUUAACUGUUAAAAAGUUACUUUUGACUUUGCUAGAUAAGGAGGCGAACCCAAGUGUGUGUCUCCUCUGAAUGUCUCAGAACUCAGUUGUGAAGGAGCAGGAGG", "RBNS enrichment (R)": 0.483}
{"Oligonucleotide": "CGUUGUAUUAAAAACAAGAUAAAAAAGCUGCCAAGAUUUUUGGCGAGUGGUUGGUCUGAAGUCCUUGCAAGACGCUGAUGCUCAAGCUGUUGACAUACUCAUUGCCUACU", "RBNS enrichment (R)": 0.292}
{"Oligonucleotide": "AUACCCCCUAGCAAACUUGGCCCUCUCCAUCUGUUCUGGGACUCUAUACUUCCCUAACCUGGAUCCCUGCUCUGCAAUGAGGUGGCCGUGGUUACACCAUCAUCUACCCU", "RBNS enrichment (R)": 0.523}
{"Oligonucleotide": "GAACUCUCCUUGCCUAGGAUGGCAACUGAUUUUGCUCUCUUUGGAAAGAUUCUAGAUAAGUCAGCAUUGUUUAAAUCCAAGUGCAGUGCAAGUCUGUGAACUGAUCUGUU", "RBNS enrichment (R)": 0.29}
{"Oligonucleotide": "CCUUUUUUAAAAACGGGUUUGAACUCCUGUUUAGCCAAGAGUGAUCUUGAGCUGGUCUCCUGCCUCCACCCCCUGAGUGCUGGGGUUACAGGUGAUAGCUGGUCUCCUGC", "RBNS enrichment (R)": 0.243}
{"Oligonucleotide": "AAAUUCAAGGCCACAAAAACAAUGUUUGGGGGAAAAAAAAGAAAAAAUCAUGCCAGCUAAUCAUGUCAAGUUCACUGCCUGUCAGAUUGUUGAUAUAUACCUUCUGUAAA", "RBNS enrichment (R)": 0.457}
{"Oligonucleotide": "UACUUUCCCAGACUGGUGGCAUCUGAGUUCCCCAUCCUACCACUCUCACCCCACUUUCCUGCCCCACCUAAACCCUCGUUUUAGUAAUUUGUAGUGACUGUUCCCUUCCC", "RBNS enrichment (R)": 0.745}
{"Oligonucleotide": "GGUUUGGGAAGAAACAAAGCCAUGCCUGCUCCUGCCUCUCUCCCAACAUGUUUCCAGCAAGUAGAUGCCCCUGUGUGUGUUUUCCCUUGCCUUGUUUCCUGCCUUAUAUC", "RBNS enrichment (R)": 7.21}
{"Oligonucleotide": "GAAGUUGACCAGACAAAGCAAAUGGAGGGGCACCUCUGUGUACCCUCUUCACCUAAGUGUUUAUAACCAGCAGUACCCUGCUACAAGCCUUGGGUGCAGCCAUCACUGGA", "RBNS enrichment (R)": 0.224}
{"data": "Mixed results"}
{"Molecule": "PhoQ, residues 284 288 289 292 302 303 QWQEDG", "target": "PhoP, residues 12 14 15 18 19 NHFIF (Escherichia coli, UniProt P23836)", "assay": "Sort-seq, refers to: YFP reporter", "system": "E. coli", "conditions": "PhoQ-PhoP variant library, with: 10 µM Mg2+", "scale": "baseline: high Mg2+ state, higher = stronger signaling", "quantity": "fold induction", "value": 6.29}
{"note": "Excerpt of the above (mixed results):"}
{"Molecule": "PhoQ, residues 284 288 289 292 302 303 QWQEDG", "target": "PhoP, residues 12 14 15 18 19 NHFIF (Escherichia coli, UniProt P23836)", "assay": "Sort-seq, refers to: YFP reporter", "system": "E. coli", "conditions": "PhoQ-PhoP variant library, with: 10 µM Mg2+", "scale": "baseline: high Mg2+ state, higher = stronger signaling", "quantity": "fold induction", "value": 6.29}
